Measured values from different studies.
Each line is one published result; not all experiments were run side by side.
UCHL1: Ubiquitin carboxyl-terminal hydrolase isozyme L1 (UCHL1, Homo sapiens, UniProt P09936)
Sequence of UniProt P09936 (whole entry, looked up): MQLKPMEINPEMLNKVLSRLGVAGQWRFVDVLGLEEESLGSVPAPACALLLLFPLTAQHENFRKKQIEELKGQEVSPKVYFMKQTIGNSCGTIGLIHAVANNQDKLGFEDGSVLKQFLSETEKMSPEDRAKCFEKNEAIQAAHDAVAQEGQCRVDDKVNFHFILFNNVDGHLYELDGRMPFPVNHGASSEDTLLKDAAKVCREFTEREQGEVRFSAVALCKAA

With `CC(C)n1nc(-c2ccc3oc(N)nc3c2)c2c(N)ncnc21` the AUC(0-last) was 2860 ng·h/mL (human, plasma; oral, 30 mg once weekly, cycle 1 day 15).
For `Cc1noc(C)c1-c1cc(C(O)(c2ccccn2)c2ccccn2)c2nc(C3CC3)[nH]c2c1`, the AUC(0-last) was 4650 ng·h/mL (human male fasted, plasma; oral, 4 mg once daily, cycle 1 day 8).
For `Cc1n[nH]c(C)c1C=C(C#N)C(=O)Nc1ccc(SC(F)F)cc1`, the labelling was 17.9% (UCHL1; covalent, intact protein LC-MS; 12.5 µM).
The AUC(0-last) of `CC(F)(F)c1cc(F)ccc1-c1sc2cc(O)ccc2c1Oc1ccc(/C=C/C(=O)O)cc1` is reported as 8020 ng·h/mL (human patients, serum; oral, 225 mg twice daily, cycle 1 day 28, regular meal, mean).
The AUC(0-last) of `Cn1c(=O)oc2ccc(-c3ccc(C[C@@H](C#N)NC(=O)[C@@H]4CNCCCO4)cc3)cc21` is reported as 3590 ng·h/mL (human, mild renal impairment, plasma; oral, 25 mg single dose, mean).
`CC(C)NC(=O)COc1cccc(-c2nc(Nc3ccc4[nH]ncc4c3)c3ccccc3n2)c1` gave an AUC(0-last) of 9640 ng·h/mL (human male, plasma; oral, 200 mg, day 6, alone, adjusted geometric mean).
The AUC(0-last) of `CCOc1c([C@H](C)n2nc(C)c3c(N)ncnc32)cc(Cl)c(F)c1[C@@H]1CNC(=O)C1` is reported as 6.79 µM·h (human patients; oral, 20 mg, day 1, monotherapy).
With `N#CCNC(=O)c1ccc(-c2ccnc(Nc3ccc(N4CCOCC4)cc3)n2)cc1` the AUC(0-last) was 4850 ng·h/mL (healthy human volunteers, plasma; oral, dose not given, day 4, without rifampin).
For `CN(C)C(=O)c1cc2cnc(Nc3ccc(N4CCNCC4)cn3)nc2n1C1CCCC1`, the AUC(0-last) was 13500 ng·h/mL (human, end-stage renal disease, plasma; oral, 400 mg, single dose, geometric mean).
For `Cc1cc(Nc2cc3ncccc3c(N[C@@H]3C[C@H]4CC[C@@H](C3)N4CCC#N)n2)n[nH]1`, the AUC(0-last) was 157 ng·h/mL (human, plasma; 1000 mg single dose, mean).
`COc1ccccc1NC(=O)C(C#N)=Cc1ccccc1F` has a labelling of 17% (UCHL1; covalent, intact protein LC-MS; 12.5 µM).
The AUC(0-last) of `C=CC(=O)N(C)CCOc1c(N)ncnc1-c1cc(F)cc(NC(=O)c2ccc(C3CC3)cc2F)c1C` is reported as 192 ng·h/mL (human, fasted, whole blood; oral, 60 mg single dose, food effect study, mean).

A few entries again:
The AUC(0-last) of `CCOc1c([C@H](C)n2nc(C)c3c(N)ncnc32)cc(Cl)c(F)c1[C@@H]1CNC(=O)C1` is reported as 6.79 µM·h (human patients; oral, 20 mg, day 1, monotherapy).
With `N#CCNC(=O)c1ccc(-c2ccnc(Nc3ccc(N4CCOCC4)cc3)n2)cc1` the AUC(0-last) was 4850 ng·h/mL (healthy human volunteers, plasma; oral, dose not given, day 4, without rifampin).
